{"data": "Measurements gathered from unrelated publications", "note": "A part holds a random share of what one study measured. Substitutions count along the parent as printed."}
{"data": "Sample 1", "target": "CCND2, cyclin fold, Cln2 fusion (human)", "method": "yeast growth competition, sequencing", "matrix": "yeast", "setting": "weak parent motif", "reference": "not given", "reading": "higher = stronger binding", "starting sequence": "MASTL docking peptide (human); PMIAKNLMCELDE; partner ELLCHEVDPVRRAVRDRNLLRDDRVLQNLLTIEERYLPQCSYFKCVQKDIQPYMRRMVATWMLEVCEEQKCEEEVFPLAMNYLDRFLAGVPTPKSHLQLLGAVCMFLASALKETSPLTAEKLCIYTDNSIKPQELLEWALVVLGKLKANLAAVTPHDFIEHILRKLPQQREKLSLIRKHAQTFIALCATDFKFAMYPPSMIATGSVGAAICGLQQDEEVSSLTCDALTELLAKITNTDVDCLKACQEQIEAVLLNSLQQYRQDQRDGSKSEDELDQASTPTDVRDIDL"}
{"Variant": "PMIASNLMCELDE [K5S]", "normalised enrichment score": -0.136}
{"Variant": "PMIAKNLMCELFE [D12F]", "normalised enrichment score": 0.0966}
{"Variant": "PMIAKNLVCELDE [M8V]", "normalised enrichment score": 0.234}
{"Variant": "PMIAKNLMMELDE [C9M]", "normalised enrichment score": -0.0826}
{"Variant": "PMIAKNFMCELDE [L7F]", "normalised enrichment score": -0.163}
{"Variant": "PMIAKNPMCELDE [L7P]", "normalised enrichment score": -0.139}
{"Variant": "PMMAKNLMCELDE [I3M]", "normalised enrichment score": -0.0777}
{"Variant": "PMIAKNLMCQLDE [E10Q]", "normalised enrichment score": 0.367}
{"Variant": "PMIAKRLMCELDE [N6R]", "normalised enrichment score": 0.0712}
{"Variant": "PMIAKNLQCELDE [M8Q]", "normalised enrichment score": 0.133}
{"Variant": "PMIAKNLMTELDE [C9T]", "normalised enrichment score": 0.0779}
{"Variant": "PMHAKNLMCELDE [I3H]", "normalised enrichment score": -0.0213}
{"Variant": "PEIAKNLMCELDE [M2E]", "normalised enrichment score": 0.147}
{"data": "Sample 2", "target": "ABI1, truncated, D143A, DHFR fusion (Arabidopsis thaliana)", "method": "DHFR PCA, deep sequencing", "matrix": "yeast", "setting": "methotrexate growth selection, single substitutions", "with": "(+)-ABA 0.0091 µM", "reference": "wild-type fitted maximum", "reading": "higher = stronger binding", "starting sequence": "PYL1, truncated, DHFR fusion (Arabidopsis thaliana); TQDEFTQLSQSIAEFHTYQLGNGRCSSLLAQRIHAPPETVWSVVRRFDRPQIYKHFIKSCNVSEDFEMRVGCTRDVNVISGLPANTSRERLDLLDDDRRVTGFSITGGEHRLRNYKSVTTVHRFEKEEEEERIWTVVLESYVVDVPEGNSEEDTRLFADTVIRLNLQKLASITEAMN; partner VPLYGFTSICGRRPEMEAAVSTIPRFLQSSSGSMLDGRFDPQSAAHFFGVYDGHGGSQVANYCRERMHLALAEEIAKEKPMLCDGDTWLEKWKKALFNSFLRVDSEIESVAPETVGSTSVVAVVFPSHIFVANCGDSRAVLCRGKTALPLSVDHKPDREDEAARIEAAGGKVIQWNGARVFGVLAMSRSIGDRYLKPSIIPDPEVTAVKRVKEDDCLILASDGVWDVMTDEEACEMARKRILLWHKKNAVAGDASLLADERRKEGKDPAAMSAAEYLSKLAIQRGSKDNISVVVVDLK"}
{"Variant": "K126N", "relative binding score": "48.1%"}
{"Variant": "D96F", "relative binding score": "-8.95%"}
{"Variant": "R113N", "relative binding score": "4.26%"}
{"Variant": "I57K", "relative binding score": "14%"}
{"Variant": "E64W", "relative binding score": "1.91%"}
{"Variant": "V44D", "relative binding score": "-3.99%"}
{"Variant": "E14M", "relative binding score": "8.09%"}
{"data": "Sample 3", "target": "RNA binding protein fox-1 homolog 2, RRM domain, GST-SBP tag (RBFOX2, Homo sapiens, UniProt O43251-10, residues 100-194)", "method": "RNA Bind-n-Seq", "molecule type": "RNA", "matrix": "in vitro", "tested at": "365 nM", "setting": "natural RNA segment, single round, ends assumed", "reference": "no-protein control", "reading": "higher = stronger binding", "shared flanks, not repeated": "GGGAGUUCUACAGUCCGACGAUC … UGGAAUUCUCGGGUGCCAA", "Target sequence (chain)": "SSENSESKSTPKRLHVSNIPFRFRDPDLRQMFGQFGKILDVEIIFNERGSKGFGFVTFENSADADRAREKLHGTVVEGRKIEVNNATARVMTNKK"}
{"Strand": "CAUUGUUAUUCAUUUUGUAAAAUACUAGUCUUUAUUUUCAUUUUUUGUAAAAUUUAAACAUCGUAUGCGCAUAAAGAAAAAGGAAACAAGAAUUAGGGGAAAAUAACAUU", "RBNS enrichment (R)": 0.725}
{"Strand": "UUCUGCGUAAAUUAAAUUGUGUACUGAAGGGAAAAGUUUGAUCAUACCAAACAUUUCCUAAACUCUCUAGUUAGAUAUCUGACUUGGGAGUAUUAAAAAUUGGGUCUAUG", "RBNS enrichment (R)": 0.289}
{"Strand": "AUGUGGAAGUCAGUACGAUCAAGUUGUUGACUGUGAUUAGAUCACAUCUUAAAUUCAUUUCUAGACUCAAAACCUGGAGAUGCAGCUACUGGAAUGGUGUUUUGUCAGAC", "RBNS enrichment (R)": 0.314}
{"Strand": "AGGUGUUUCCUGCGCUACUACUUGUCAUGUUGCAUUCAUGUUCACAUCCUGAUUUCACUGCCUCAGAUGUGCCUGGCCACAAAGCACUCUGAACUAAUUCCUAAAGAGAA", "RBNS enrichment (R)": 0.596}
{"Strand": "CUGAAGAUUGUUUAUCUUAUCUAGAUGUAAAUUUUUAUUAAAAAGUUGCACUUAUGAAAAAGCAAAAUACUAGUCUGACAGAUGUUUGCUCCGGUUUUAAAUUUCGACAC", "RBNS enrichment (R)": 0.512}
{"Strand": "AAUCUGUGGAUUAUGUUCCUGAUCAUUUGCAGUUAAGGAAUUUAAAUAAAUCACAUGUUAACGACAAGAAUUUCUGUUUUUCUCUUUCACUUAAAAUCCAAACUAGAUCU", "RBNS enrichment (R)": 0.579}
{"Strand": "ACUGAAGACUGGCUGGAGGCACUGCAGAAGCAGCCCUUGGCUUUCUACUCCCACACUUGCUUGUGAAACGUGUACCAGCUACCUAAGGAGGGCCAAGGCAGGAAGGGCCA", "RBNS enrichment (R)": 1.16}
{"Strand": "CUAGCAUGCAGGAGGAUGCCAUCUGUUUCUUUGAGCCUUGUUAGAGAAGGUAAUGCUAGAGGAAGACUCAGUCACACAGAUAACAGGCAUUGGAAACAGCCGCACUAUGG", "RBNS enrichment (R)": 19.1}
{"Strand": "GCUUCAUGUUCAUGGAUGACACAAUGUUUUUGCAAAAAAACCCUGAAACUAUUCUUUGGCAUUGGUGUCCAUGGCCCUAUACCGCCAUCUUACACGAAAGCCACAGAGUU", "RBNS enrichment (R)": 0.328}
{"Strand": "CAGCCCGAGGCACUGCUACGCCAGCAGCUGCCACAUGGGAUGGUGGCUCAGGCGCUCCCUCCAGGAUUCUGCCCCUGCCUGUCCACAGACUCCUUUGUGCUGGAACCUGG", "RBNS enrichment (R)": 0.835}
{"Strand": "GUAGCGACUUUGGUGUGCAGUGAGAUGCUCACCUUUAGCCUCUGCUCCCCUAACUAGGCUGGCACUUCCCUUGGCUGUACUUGGGGGACACCCAGAGAGGCUGGUGUACU", "RBNS enrichment (R)": 0.509}
{"Strand": "CGAGGAGGGGCGGGGGCAGGGGCUGCAGCCCCCAGCGCUGCCUUUGCGGAUUCUGUUUUUGAGCCGUGGACUUGGGUUGUAAAUUUAUUUGUGGGGAGUGCGCUCCAGGA", "RBNS enrichment (R)": 2.35}
{"data": "Mixed results"}
{"Molecule": "PhoQ, residues 284 288 289 292 302 303 NLCILV", "target": "PhoP, residues 12 14 15 18 19 YHFSH (Escherichia coli, UniProt P23836)", "assay": "Sort-seq, measured: YFP reporter", "test system": "E. coli", "setting": "PhoQ-PhoP variant library, with: 10 µM Mg2+", "how to read": "reference: high Mg2+ state, higher = stronger signaling", "endpoint": "fold induction", "result": 1.95}
{"note": "Some of these lines once more (sample 1):"}
{"Variant": "PMHAKNLMCELDE [I3H]", "normalised enrichment score": -0.0213}
{"Variant": "PMIAKNFMCELDE [L7F]", "normalised enrichment score": -0.163}
{"Variant": "PEIAKNLMCELDE [M2E]", "normalised enrichment score": 0.147}
{"Variant": "PMIAKNLMMELDE [C9M]", "normalised enrichment score": -0.0826}
{"Variant": "PMIAKNPMCELDE [L7P]", "normalised enrichment score": -0.139}
